Results pooled from the literature.
“And” joins repeats or separate records; there may be more than shown. ± marks the error that the study gave.
ABCG2: Broad substrate specificity ATP-binding cassette transporter ABCG2 (ABCG2, Homo sapiens, UniProt Q9UNQ0)
Sequence of UniProt Q9UNQ0 (whole entry, looked up): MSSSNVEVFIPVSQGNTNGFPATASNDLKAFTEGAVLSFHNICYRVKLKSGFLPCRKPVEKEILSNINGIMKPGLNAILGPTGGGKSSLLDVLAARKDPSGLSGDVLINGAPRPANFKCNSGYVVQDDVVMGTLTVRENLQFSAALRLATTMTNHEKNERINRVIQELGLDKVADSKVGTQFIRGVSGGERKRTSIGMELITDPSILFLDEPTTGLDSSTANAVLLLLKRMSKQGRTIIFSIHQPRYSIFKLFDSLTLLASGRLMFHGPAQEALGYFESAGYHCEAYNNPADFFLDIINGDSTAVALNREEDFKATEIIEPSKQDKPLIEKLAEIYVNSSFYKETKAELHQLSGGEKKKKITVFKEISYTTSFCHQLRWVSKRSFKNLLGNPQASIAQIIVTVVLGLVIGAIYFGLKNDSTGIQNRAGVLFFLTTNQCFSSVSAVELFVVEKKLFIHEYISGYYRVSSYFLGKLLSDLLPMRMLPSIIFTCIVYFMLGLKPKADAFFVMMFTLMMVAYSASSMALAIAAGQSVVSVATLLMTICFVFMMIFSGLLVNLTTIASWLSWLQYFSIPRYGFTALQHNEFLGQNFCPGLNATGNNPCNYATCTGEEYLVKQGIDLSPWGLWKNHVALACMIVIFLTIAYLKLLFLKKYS
Sequence of UniProt P08684 (whole entry, looked up): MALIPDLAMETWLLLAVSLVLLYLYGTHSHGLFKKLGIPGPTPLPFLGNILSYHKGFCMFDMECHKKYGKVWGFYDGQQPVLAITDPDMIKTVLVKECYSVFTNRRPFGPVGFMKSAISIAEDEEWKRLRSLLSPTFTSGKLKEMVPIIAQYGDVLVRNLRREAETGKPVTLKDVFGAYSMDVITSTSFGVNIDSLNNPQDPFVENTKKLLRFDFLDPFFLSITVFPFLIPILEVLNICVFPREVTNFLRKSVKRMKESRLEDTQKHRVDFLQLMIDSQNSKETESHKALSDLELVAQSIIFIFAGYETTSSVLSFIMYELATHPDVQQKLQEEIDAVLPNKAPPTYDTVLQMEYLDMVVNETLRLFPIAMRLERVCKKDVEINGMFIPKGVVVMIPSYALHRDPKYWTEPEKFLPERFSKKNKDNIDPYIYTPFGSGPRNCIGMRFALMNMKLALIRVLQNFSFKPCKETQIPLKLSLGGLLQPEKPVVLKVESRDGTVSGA
Sequence of UniProt Q70CQ1 (whole entry, looked up): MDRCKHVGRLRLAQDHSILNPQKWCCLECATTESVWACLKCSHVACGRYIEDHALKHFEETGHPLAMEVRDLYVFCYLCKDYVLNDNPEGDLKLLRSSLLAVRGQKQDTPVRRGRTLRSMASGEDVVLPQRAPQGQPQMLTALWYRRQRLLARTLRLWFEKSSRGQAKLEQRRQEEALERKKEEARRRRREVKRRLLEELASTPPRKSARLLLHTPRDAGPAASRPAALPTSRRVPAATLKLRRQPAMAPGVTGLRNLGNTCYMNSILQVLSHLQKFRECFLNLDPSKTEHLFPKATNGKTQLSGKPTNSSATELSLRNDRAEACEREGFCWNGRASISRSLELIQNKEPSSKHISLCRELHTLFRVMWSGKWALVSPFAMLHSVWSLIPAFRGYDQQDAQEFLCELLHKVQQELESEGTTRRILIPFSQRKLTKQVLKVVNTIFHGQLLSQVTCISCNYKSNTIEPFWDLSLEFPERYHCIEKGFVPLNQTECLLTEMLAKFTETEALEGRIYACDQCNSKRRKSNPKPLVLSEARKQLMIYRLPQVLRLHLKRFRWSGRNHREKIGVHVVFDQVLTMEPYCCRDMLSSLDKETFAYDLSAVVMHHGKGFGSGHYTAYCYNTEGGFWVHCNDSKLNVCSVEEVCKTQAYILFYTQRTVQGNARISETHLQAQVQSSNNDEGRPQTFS

Structure (SMILES)	tested on	test	test system	conditions	scale	quantity	value
Cc1cc(C(=O)NC(C)(C)COc2cccc3c2C(N)=NS(=O)(=O)N3)cc(C)n1	human peripheral blood lymphocytes	CBPI, preliminary test	–	60 µg/mL, 4 h	baseline: vehicle control	cytotoxicity	6%
CC(C)c1nc(N(C)S(C)(=O)=O)nc(-c2ccc(F)cc2)c1/C=C/[C@@H](O)C[C@@H](O)CC(=O)O	ABCG2	substrate	human EpiIntestinal microtissues	5 µM, 2 h, with: Ko143 5 µM	–	Papp (B to A)	8.1 ± 1.1 ×10⁻⁶ cm/s
OC[C@H]1O[C@@H](O[C@H]2[C@H](O)[C@@H](O)[C@H](O)O[C@@H]2CO)[C@H](O)[C@@H](O)[C@@H]1O	–	binding, equilibrium dialysis LC-MS	–	5 µM, thermostabilized A2AR-BRIL construct	baseline: no-protein control, direction not given	z-scored log2 fold change	0.154
c1csc(CNc2cc[nH]n2)c1	human peripheral blood lymphocytes	–	–	1560 µg/mL, 4 h	–	numerical aberration cells	0%
CC[C@H]1[C@@H](O)[C@@H]2[C@H](CC[C@]3(C)[C@@H]([C@H](C)CCNC(=O)NS(=O)(=O)c4ccc(C(C)(C)C)cc4)CC[C@@H]23)[C@@]2(C)CC[C@@H](O)C[C@@H]12	Cytochrome P450 3A4 (CYP3A4, Homo sapiens, UniProt P08684)	–	human, plasma	dose not given, mean, alone	–	AUC(0-inf)	426 ng·h/mL
CC[C@]1(O)C[C@H]2CN(CCc3c([nH]c4ccccc34)[C@@](C(=O)OC)(c3cc4c(cc3OC)N(C=O)[C@H]3[C@@](O)(C(=O)OC)[C@H](OC(C)=O)[C@]5(CC)C=CCN6CC[C@]43[C@@H]65)C2)C1	CHP-212 resistant subline R2 (heterozygous USP7 V517F)	cell viability	–	13.72 nM	–	viability	78.6% and 64.2%
O=C(O)CCc1ccccc1	Ubiquitin carboxyl-terminal hydrolase 49, ZnF-UBD domain (USP49, Homo sapiens, UniProt Q70CQ1)	–	–	–	–	Kd	172 µM
C[C@]12CCCN1CC1=NNC(=O)c3cc(F)cc4[nH]c2c1c34	ABCG2	substrate	membrane vesicles	0.5 µM, with: ATP	–	uptake rate	0.246 pmol/min/mg
CC(C)C(=O)C(=O)O	–	binding, equilibrium dialysis LC-MS	–	5 µM, thermostabilized A2AR-BRIL construct	baseline: no-protein control, direction not given	z-scored log2 fold change	-1.73
Cc1cc(Nc2ccc(S(F)(F)(F)(F)F)cc2)n2nc(C(C)(F)F)nc2n1	Plasmodium falciparum	12-lead Holter ECG	human malaria patients	oral, 400 mg, QTc above 500 ms	–	patients with QTcB above threshold	0%
CC[C@H](CO)N(CCN(N=O)[C@H](CC)CO)N=O	Salmonella typhimurium	mutagenicity, Ames plate incorporation	TA98	5000 µg/plate, without S9, methanol	–	revertant colonies per plate	33 ± 6
CC[C@]1(O)C[C@@H]2CN(CCc3c([nH]c4ccccc34)[C@@](C(=O)OC)(c3cc4c(cc3OC)N(C)[C@H]3[C@@](O)(C(=O)OC)[C@H](OC(C)=O)[C@]5(CC)C=CCN6CC[C@]43[C@@H]65)C2)C1	human peripheral blood lymphocytes	in vitro micronucleus	–	7.5 ng/mL, 24 h, without S9, DMSO 0.2%	–	micronucleated binucleated cells	1%
COc1ccc2c3c([nH]c2c1)[C@H](CC(C)C)N1C(=O)[C@H](CC(=O)NC(C)C)NC(=O)[C@@H]1C3	ABCG2	inhibitor, measured: protoporphyrin IX	A549	10 µM, 2 h, with: 1 mM ALA	–	inhibition	98.1% and 117% and 126% and 104%

Some of these lines once more:
Structure (SMILES)	tested on	test	test system	conditions	scale	quantity	value
c1csc(CNc2cc[nH]n2)c1	human peripheral blood lymphocytes	–	–	1560 µg/mL, 4 h	–	numerical aberration cells	0%
CC(C)C(=O)C(=O)O	–	binding, equilibrium dialysis LC-MS	–	5 µM, thermostabilized A2AR-BRIL construct	baseline: no-protein control, direction not given	z-scored log2 fold change	-1.73
